Measured values from different studies.
Every numbered part comes from another study and shows a few of its results, in no order. Substitutions count along the parent as printed.

Set 1
Target: Sal-like protein 4, full length isoform B (SALL4, Homo sapiens, UniProt Q9UJQ4-2, residues 1-616)
Technique: universal PBM
Form: double-stranded DNA, one strand shown
Matrix: in vitro
Tested at: not given
Setting: 8-mer, flanks averaged, mean of replicates
Direction: higher = stronger binding
Construct (chain): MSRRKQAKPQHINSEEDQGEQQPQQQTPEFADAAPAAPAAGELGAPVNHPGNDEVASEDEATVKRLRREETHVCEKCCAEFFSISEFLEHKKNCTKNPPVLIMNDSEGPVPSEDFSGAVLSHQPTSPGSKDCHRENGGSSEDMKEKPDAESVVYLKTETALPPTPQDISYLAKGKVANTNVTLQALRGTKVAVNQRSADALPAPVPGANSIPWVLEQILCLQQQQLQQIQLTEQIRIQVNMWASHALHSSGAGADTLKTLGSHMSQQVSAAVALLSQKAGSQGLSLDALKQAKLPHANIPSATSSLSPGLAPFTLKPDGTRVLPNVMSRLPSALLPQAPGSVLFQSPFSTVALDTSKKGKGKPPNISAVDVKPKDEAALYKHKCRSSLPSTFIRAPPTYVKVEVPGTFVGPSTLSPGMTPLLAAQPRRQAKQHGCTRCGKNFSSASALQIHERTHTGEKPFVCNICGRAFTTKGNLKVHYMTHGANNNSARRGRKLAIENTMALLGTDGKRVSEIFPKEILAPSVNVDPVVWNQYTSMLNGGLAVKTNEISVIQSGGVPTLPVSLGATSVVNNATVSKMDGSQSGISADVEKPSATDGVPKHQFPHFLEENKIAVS
Strand	E-score
GGACATCA	0.0667
GTTGCGTA	-0.00286
GGAACAGA	0.0169
CCTAGTCC	-0.133
AACGGAGA	0.0234
AAATCGGT	-0.00696
CCCCGCCA	-0.0628
CTCAAGCA	-0.00775
GTTGTCGA	-0.0359
ATGCATTC	0.2
CGGACTTC	-0.184
ATGTCAGC	-0.152
CAAAGAAA	0.101
ATACTCCC	0.0158
AGATCCCT	-0.168
TACTTTAA	0.238
ATTTTGGG	0.0984
CAGGCGAC	-0.309
GGCACTCA	-0.0836
AAACCCCC	-0.167
CAACTGGC	-0.12
GGCTCAAC	-0.226

Set 2
Target: Ras GTPase-activating protein-binding protein 1, RRM domain (G3BP1, Homo sapiens, UniProt Q13283)
UniProt Q13283, sequence (whole entry, looked up): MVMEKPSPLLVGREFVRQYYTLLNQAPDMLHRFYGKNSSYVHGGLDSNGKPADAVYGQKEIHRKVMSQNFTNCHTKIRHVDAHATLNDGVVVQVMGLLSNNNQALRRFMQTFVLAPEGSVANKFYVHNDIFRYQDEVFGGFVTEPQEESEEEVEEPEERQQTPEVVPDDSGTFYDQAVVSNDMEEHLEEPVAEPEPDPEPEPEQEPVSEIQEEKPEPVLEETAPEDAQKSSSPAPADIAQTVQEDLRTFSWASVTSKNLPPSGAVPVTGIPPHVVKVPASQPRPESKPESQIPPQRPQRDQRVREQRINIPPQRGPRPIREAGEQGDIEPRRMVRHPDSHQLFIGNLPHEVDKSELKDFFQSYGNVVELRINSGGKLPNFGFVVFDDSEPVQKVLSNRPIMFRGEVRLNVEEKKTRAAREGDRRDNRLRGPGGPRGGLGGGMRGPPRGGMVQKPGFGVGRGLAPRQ
Technique: RNA Bind-n-Seq
Form: RNA
Matrix: in vitro
Tested at: 1 µM
Setting: whole 134-nt RNA, ends assumed
Together with: 150 mM KCl
Relative to: input library
Direction: higher = stronger binding
All sequences stand within: GGGAGUUCUACAGUCCGACGAUC … UGGAAUUCUCGGGUGUCAAGG
Strand	log2 enrichment
GUCCUGUGCUACACAUCGUAUGUACCGAAUCGGGAGGGUUUUUUUGGGUUUUUUUGGGAAAGUAUUAUGUUACGCCGUUCGGAUCUGCAC	0.0709
CUGUGCUACACAUCGUAUGUACCGAAUCGGGGCCCCCCCGGGCCCCCCCGGGCCCCCCCGGAAAGUAUUAUGUUACGCCGUUCGGAUCUG	-0.64
CCUGUGCUACACAUCGUAUGUACCGAAUCAAAUUUUUUUAAACCCCCAAACCCCCCCAAAAAAGUAUUAUGUUACGCCGUUCGGAUCUGC	-1.29
AAGUCCUGUGCUACACAUCGUAUGUACCGAAUCGGUUUUGGUUUUGGGUUUUGGGGAAAGUAUUAUGUUACGCCGUUCGGAUCUGCACUU	-0.258
CAAGUCCUGUGCUACACAUCGUAUGUACCGAAUCGGGCCCGGGCCCGGGGCCCGGGAAAGUAUUAUGUUACGCCGUUCGGAUCUGCACUU	-0.853
UCCUCAAGUCCUGUGCUACACAUCGUAUGUACCGAAUCGGAGGGGAGGGAGGAAAGUAUUAUGUUACGCCGUUCGGAUCUGCACUUCCAG	-0.193
CUGUGCUACACAUCGUAUGUACCGAAUCGGCCCCCCCGGGGCCCCCCCGGGGCCCCCCCGGGAAAGUAUUAUGUUACGCCGUUCGGAUCU	-0.621
GCAGGAAGUAAAAACAAAUGGAAAUGCUUCGGAUAGUGGCAGGGGUGGGGGUUGCUAAGGAAAGGGUGGGAUGGGAGUGGGUAAAGAGUU	1.22
UCCUCAAGUCCUGUGCUACACAUCGUAUGUACCGAAUCGGUGGGUGGUGGGAAAGUAUUAUGUUACGCCGUUCGGAUCUGCACUUCCAGC	-0.0503
CAAGUCCUGUGCUACACAUCGUAUGUACCGAAUCGGCCCGGGGCCCGGGGCCCGGGAAAGUAUUAUGUUACGCCGUUCGGAUCUGCACUU	-1.18
GUCCUGUGCUACACAUCGUAUGUACCGAAUCGGGGUUUUUGGGGUUUUUGGUUUUUGGAAAGUAUUAUGUUACGCCGUUCGGAUCUGCAC	-0.247
CACAGACAACACGCACCCACACAGACACAGAGUGAAGGGGUUGGGAUGGGGACAGGGUGCACAGCAGGGCGGGGUAGGACCCCAGCCCCU	0.0767
CACAGACAACACGCACCCACACAGACACAGAGGGAAGGGGUUGGGAUGGGAAAAGGGUGCACAGCAGGGCGGGGUAGGACCCCAGCCCCU	-0.277
CACAGACAACACGCACCCACACAGACACAGAGGGAAGGGGUUGGGAUGGGGACAGGGUGCACAGCAGGGCGGGGUAGGACCCUAGCCCCU	-0.259

Set 3
Target: RING finger protein unkempt homolog, zinc fingers 1-6, GST-SBP tag (UNK, Homo sapiens, UniProt Q9C0B0, residues 30-357)
Technique: RNA Bind-n-Seq
Form: RNA
Matrix: in vitro
Tested at: not given
Setting: RNA with constant flanks, human and mouse sites, ends assumed
Relative to: input RNA pool
Direction: higher = stronger binding
All sequences stand within: GGGAGUUCUACAGUCCGACGAUC … CAACAGAGGAUUGAGCAUCA
Construct (chain): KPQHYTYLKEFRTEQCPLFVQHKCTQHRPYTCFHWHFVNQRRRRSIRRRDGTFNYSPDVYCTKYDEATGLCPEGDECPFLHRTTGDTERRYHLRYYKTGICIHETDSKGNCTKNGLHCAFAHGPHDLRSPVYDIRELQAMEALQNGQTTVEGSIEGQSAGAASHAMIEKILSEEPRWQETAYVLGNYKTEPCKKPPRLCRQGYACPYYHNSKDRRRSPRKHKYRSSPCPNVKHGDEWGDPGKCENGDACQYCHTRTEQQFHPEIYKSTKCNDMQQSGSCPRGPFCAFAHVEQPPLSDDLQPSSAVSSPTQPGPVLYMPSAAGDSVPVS
Strand	bound/input enrichment [ratio]
AUGCAGAUGGCUGGGAAGGACAUCAUCCUCACAGACAAAGGAACUGCUGUGUUACAGUUCCUCACAAGCCUCUUUAAGCCUUUUGUGGAAUCAUAUCAGUUACUUUGCAGAUACCUUUUG	0.0856
GACAGACACAUACCUCUUGCUCUACCACGACAAAAUAGUACGGGGCAGUCCCAAAUCCGAAAACUGGACCAUUCUGGGUUAGGUGCCCGAGCCAAAGCACCCCCAUCUCUGCCACACAGU	0.274
GAAACUAUUCCUAAAGAGGAGAGAGCUGAGAAGGAUGCUCGGAGACCGUCUCUCGAGAAACAUAGAAAAGAAAAGCCUUUUAAAACCGGGAGAGGCAGAAUUUCCACUCCUGAAAGAAAA	0.486
UAGCAGAGGUAAGAAUAUGUAUUCAUAUAAUCUGCCUACUUUUGAGUUCUCAUAUUAACAUUUAGAUAACAUAUGAAGUAUGGCCCCCUUGGAUCCUUGUUUUUAAGUUACUUUCGAUGU	2.99
UGAGCUGUCUGCCCUUCCGGAAACCCAACCUGCAAUCAACUGCAAAUCAAAUUCUUCACAUUCCAGCUACAGUCUUUCUUUCCCCAUUGAAUCUCAGUCCCUGGCCAUGUGGUCAAGGUG	0.221
AUCUGGGCUGCAUCUCUUCCAAGUUACCAGAAGGGCUAAUUCUUCCUUGAGAACAUUAUUUAUUCUUCAACAAUAAAUCUUCGGCAAUAGGACUGUAUUUAGCCUGUAUUGUCCCUACCC	0.273
CUGUGUUAAAAUAAUUGGAAAGGUUUCUGUGUUACAUGAGAGGGUUUUUUCGGUUUUGUUUUUUUAAACAAAGACUCGUAGAGAUGAAAAAAUUACUAAUGAAAUUGUGUACGUGUCUGU	0.354
GAAUACAUAGGUGAAGAAGAAGCUACAUUAGUUGAUUUUGUUUGCUCUAAGGUUAUGGCACAUAGUUCACCACAGAGCAUUUUAGAUGAUGUUGCCAUGGUACUAGAUGAAGAAGCAGAA	2.12
CAUGUGACUGUGAAGAAGCUGUUUGUUGGUGGAAUUAAGGAAGAUACUGAGGAACACCACCUUAGAGAUUACUUUGAAGAGUAUGGAAAAAUUGAUACUAUUGAAAUAAUUACCGAUAGG	2.8
CUACAGGAUGUUGCAGACUCAUUUAAGAAAAUUUUUGAUGAAGCAAAAACAGCCCAAGAAAAAGAUUCAUUGAUAACACCUCAUGUUUCUCAUCUGAGCACCCCUAGAGAGUCACCAUGU	0.234
GGCAGUUGCAAUUUGAACUUGAGCUCUAAAAAUGGUCUAUUUGUGGUUAUAUUUGCCCAUUUUAAAAGUGAAAUUUCAUUUCUGGAUGCCUUUGAAAACUGACUUUACAUGUGUUUUUGG	0.241

Set 4
Target: ABI1, truncated, D143A, DHFR fusion (Arabidopsis thaliana)
Technique: DHFR PCA, deep sequencing
Matrix: yeast
Setting: methotrexate growth selection, single substitutions
Together with: (+)-ABA 1.4 µM
Relative to: wild-type fitted maximum
Direction: higher = stronger binding
Starting sequence: PYL1, truncated, DHFR fusion (Arabidopsis thaliana); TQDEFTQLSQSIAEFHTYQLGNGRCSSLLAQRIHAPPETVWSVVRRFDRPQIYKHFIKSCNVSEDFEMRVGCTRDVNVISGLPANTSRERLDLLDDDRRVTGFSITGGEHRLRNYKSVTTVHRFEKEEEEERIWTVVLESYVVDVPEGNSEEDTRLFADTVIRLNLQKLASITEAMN; partner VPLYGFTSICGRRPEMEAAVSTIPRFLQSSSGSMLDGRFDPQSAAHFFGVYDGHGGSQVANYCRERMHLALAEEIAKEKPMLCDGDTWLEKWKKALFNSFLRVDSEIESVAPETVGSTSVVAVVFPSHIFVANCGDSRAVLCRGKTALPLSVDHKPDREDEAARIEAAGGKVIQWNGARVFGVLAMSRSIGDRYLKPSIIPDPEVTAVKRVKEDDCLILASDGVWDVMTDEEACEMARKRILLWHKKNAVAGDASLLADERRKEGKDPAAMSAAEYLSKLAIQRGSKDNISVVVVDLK
Change	relative binding score [%]
E89P	1.03
T1N	54.1
L164P	24.9
F157N	-2.5
D144T	2.83
Q31D	-2.26
F66L	15.9
N114K	3.4
E151W	8.67
G81L	0.595
I57Q	7.34
G71I	0.248
I79K	29.1
D65R	27.3
Q2T	62.2
G71P	-4.97
H34Y	36.3

Set 5
Target: CREBL2, bZIP domain (human)
Technique: DHFR protein complementation
Matrix: yeast
Setting: single substitutions, most at no-binding floor
Relative to: wild-type JUN-FOS pair
Direction: higher = stronger binding
Starting sequence: JUN, bZIP domain (human); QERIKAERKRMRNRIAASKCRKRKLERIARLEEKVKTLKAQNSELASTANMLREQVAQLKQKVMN; partner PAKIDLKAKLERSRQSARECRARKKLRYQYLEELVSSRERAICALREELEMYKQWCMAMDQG
Change	binding fitness [natural log]
K34P	-1.54
N42I	-1.33
S47D	-1.49
Q58A	-1.18
M51K	-1.35
S43I	-1.24
L38A	-1.3
K36P	-1.53
A57S	-1.25
Q55S	-1.46
A40S	-1.57
V56H	-1.51
A29E	-1.39
A29D	-1.54
K39S	-1.52
S47I	-1.32

Set 6
Target: CCNB1, cyclin fold, Cln2 fusion (human)
Technique: yeast growth competition, sequencing
Matrix: yeast
Setting: strong parent motif
Relative to: not given
Direction: higher = stronger binding
Starting sequence: E2F1 docking peptide (human); PPVKRRLDLETDH
Change	normalised enrichment score
PTVKRRLDLETDH [P2T]	0.593
PPRKRRLDLETDH [V3R]	0.51
PPVKRRLDLTTDH [E10T]	0.884
PPVKRRLVLETDH [D8V]	1.37
PPVKRELDLETDH [R6E]	0.883
PPVKRRLDLETEH [D12E]	1.36
PPVKHRLDLETDH [R5H]	0.176
PPVKRRLKLETDH [D8K]	1.03
GPVKRRLDLETDH [P1G]	1.29
PPVKRRLDLETGH [D12G]	1.07
PPVKRRLDLETDP [H13P]	1.04
PPVKRRLDLETYH [D12Y]	2.09
PMVKRRLDLETDH [P2M]	0.297
PPVKRREDLETDH [L7E]	-0.117
PPDKRRLDLETDH [V3D]	0.0677
PPVKRRLDLKTDH [E10K]	-0.351
PPVKRRLDLFTDH [E10F]	1.94
PPMKRRLDLETDH [V3M]	0.224
PPVKRRLDLELDH [T11L]	1.86
PPVKRRLALETDH [D8A]	0.832
PPQKRRLDLETDH [V3Q]	1.12
PPVKRRPDLETDH [L7P]	0.627
PPVHRRLDLETDH [K4H]	0.758
PPVTRRLDLETDH [K4T]	0.338

For quick reference, copied from above (set 5):
Change	binding fitness [natural log]
N42I	-1.33
S47D	-1.49
Q58A	-1.18
M51K	-1.35
S43I	-1.24
L38A	-1.3
K36P	-1.53
